Experimental data pooled from the literature.
Parts stem from different laboratories: compare values within a part only. Changes are numbered by the printed parent chain.

Study 1
Target: RING finger protein unkempt homolog, zinc fingers 1-6, GST-SBP tag (UNK, Homo sapiens, UniProt Q9C0B0, residues 30-357)
Method: RNA Bind-n-Seq
Molecule type: RNA
Sample: in vitro
Concentration: not given
Setting: RNA with constant flanks, human and mouse sites, ends assumed
Reference: input RNA pool
Direction: higher = stronger binding
Shared flanks, not repeated: GGGAGUUCUACAGUCCGACGAUC … CAACAGAGGAUUGAGCAUCA
Residues (chain): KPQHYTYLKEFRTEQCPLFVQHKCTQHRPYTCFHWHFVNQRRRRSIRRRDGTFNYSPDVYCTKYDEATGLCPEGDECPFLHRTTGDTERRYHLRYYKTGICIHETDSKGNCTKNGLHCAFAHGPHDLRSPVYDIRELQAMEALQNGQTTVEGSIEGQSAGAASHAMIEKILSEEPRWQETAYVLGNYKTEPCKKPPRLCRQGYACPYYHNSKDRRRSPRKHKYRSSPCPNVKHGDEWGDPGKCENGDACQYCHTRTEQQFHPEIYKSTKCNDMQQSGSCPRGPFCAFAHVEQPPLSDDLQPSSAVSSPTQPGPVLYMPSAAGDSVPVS
The bound/input enrichment of `ACAAUCAGGCUUCUGCAAAAAGAGGAAGUUUGGAAACUAAAGAUGAUAUUCCAUUUCGAAAAGUUCUUGGUAAUCCGGGUAGAGGAUCGAUUAAGACUGUAGCAGGAAGUGGAAUAGCUC` is reported as 0.304 ratio.
The bound/input enrichment of `AAAUUUCCUCUCUUAAAGCCUUCUCCAAAAUUGGCAUCUCUUAUAGAUGGUUCAUCUCCUGUUAGUAUUUUGGUCUGGACCACACAACCUUGGACGAUUCCAGCCAAUGAAGCUGUUUGC` is reported as 0.637 ratio.
`GUAAAGAGUUAAAGACUAUGUGAAGGAUUGUAUAUUUAAGUUAUUGAAAUUCUGAAACUGUAGUAAUCUAAAAUGUGUGAGUUGUGGGCUGCAGAGAAGACUCAGCCAGUAAAGGCACCU` gave a bound/input enrichment of 1.26 ratio.
`ACCCCGCGGAGCUGUGGCGGCAGAAUGGCGCAGACCGCCAUGUCCGAGACUUACGAUUUCUUGUUUAAAUUCUUGGUCAUCGGAAAUGCGGGAACUGGCAAAUCUUGCUUGCUUCAUCAG` gave a bound/input enrichment of 0.109 ratio.
`AUUUUUGUCUGUGGUUAGAACAUUUUCAUAAAACAGAUAAAGAAUGUGUAAUACUCUUAAUUUUUUUUUUUUUUUUUUUUUUUUUUUUGCUUUCUGCCUUCUAAAGUGCAACAGUAUAUA` has a bound/input enrichment of 4.78 ratio.
For `GAAGGGGUCUUGGUGUUUAAAGCAUAAGUUACCUGUUUGCACUGUUUUCAAAUAGGAAACAAUAGUGGGCACGGUGAACAUCUAAUGUAAACGUGUGUUUUCUUUUGUCAUGCUCUUGAG`, the bound/input enrichment was 0.181 ratio.
`CCGUUCGAUCCUAGAGUUCUCUUUUCUGCUGGUCAUGAUGGAAACGUGAUAGUGUGGGAUCUGGCAAGAGGAGUCAAAAUACGAUCUUAUUUCAAUAUGAUUGAAGGCCAAGGACAUGGC` gave a bound/input enrichment of 0.191 ratio.
With `AGAAGCUUCAUAAGGAAUAAACAAGUUGAAUAGAGAAAACACUGAUUGAUAAUAGGCAUUUUAGUGGUCUUUUUAAUGUUUUCUGCUGUGAAACAUUUCAAGAUUUAUUGAUUUUUUUUU` the bound/input enrichment was 3.86 ratio.
With `AUAGCCCACUUUAAGCAGUAUGUUCCUAUCAUUGAAAAAGAAGCAAAGGAAUACUUUCAAAGUUGGGGAGAAAGCGGAGAAAGAAAUGUGUUUGAAGCACUGUCUGAGCUCAUAAUUUUG` the bound/input enrichment was 0.21 ratio.
`UGCUUCUUUUUUUAUCCAUGUAAUGUGUUGCCUUUAAAAACAAAAAUGAUGACUAAAAUAAUGUGUGAGGUGGUUCAUCCCUAAGAAGUCAACGGAAGGUCACUUCAAUCGUACCCUUCU` has a bound/input enrichment of 0.26 ratio.
`CUACAGGAGGAACUGGACUGCCAAGGAGAUGAGGAGGAAGAGGAGGAGGACGGAAGCAGUUUCUGCAGUGGAGCCACUGAUUCUAGCACCCAAAGCCUGGCUCCCAGUGAAUCGGAUGAG` gave a bound/input enrichment of 0.0636 ratio.

Study 2
Target: Interferon regulatory factor 5, full length, phosphomimetic (IRF5, Homo sapiens, UniProt Q13568-2, residues 1-514, S451D/S453D/S456D/S462D)
Method: protein-binding microarray
Molecule type: double-stranded DNA, one strand shown
Sample: in vitro
Concentration: 940 nM top
Setting: 60-bp whole probe
Together with: salmon DNA 0.4 mg/ml
Reference: random background probes
Direction: higher = stronger binding
Shared flanks, not repeated: GCCTAGCAC … GTGCTAGGTCTTGATTCGCTTGACGCTGCTG
For `GACTGACTGGGTTTCGGGAC`, “fitted relative affinity” read 2.86 z-score.
`TTAGATATCAGTTTCGATGA` — result for “fitted relative affinity”: 6.61 z-score.
For `GGGTCACTCAATCTCAACAG`, “fitted relative affinity” read 0.162 z-score.
Under “fitted relative affinity”, `TAAGATTTCAGACTGGATTA` is recorded as -0.608 z-score.
For `TTAGGTCTTCTTATCCTTTA`, “fitted relative affinity” read 0.744 z-score.
`GACGGTTTCCATTTCCTGAC` — result for “fitted relative affinity”: 2.09 z-score.
`TTTTTTTTTTTTGTATTTTT` — result for “fitted relative affinity”: 1.61 z-score.
Under “fitted relative affinity”, `GAGGATATCAGACTGGAGAC` is recorded as -0.726 z-score.
`GCCGGTCTCCTTATCCTGAC` — result for “fitted relative affinity”: 0.317 z-score.
For `GACGGTCTCCTACGGCTGAC`, “fitted relative affinity” read -0.522 z-score.
`TATAATTTTGTCATCTATAA`: “fitted relative affinity” 0.903 z-score.
`GACGGTCTCCTTATCTTGAC`: “fitted relative affinity” 0.518 z-score.

Study 3
Target: CCND3, cyclin fold, Cln2 fusion (human)
Method: yeast growth competition, sequencing
Sample: yeast
Setting: weak parent motif
Reference: not given
Direction: higher = stronger binding
Starting sequence: SGO1 docking peptide (human); PLAKRALKYTDEK; partner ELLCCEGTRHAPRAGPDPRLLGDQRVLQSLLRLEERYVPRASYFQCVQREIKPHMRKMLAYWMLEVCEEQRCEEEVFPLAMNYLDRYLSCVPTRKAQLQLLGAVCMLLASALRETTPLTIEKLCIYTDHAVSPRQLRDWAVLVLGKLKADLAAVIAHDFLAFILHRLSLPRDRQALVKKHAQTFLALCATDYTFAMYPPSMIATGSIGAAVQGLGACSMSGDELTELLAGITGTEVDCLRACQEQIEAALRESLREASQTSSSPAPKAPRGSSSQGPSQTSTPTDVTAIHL
`L7A` — result for “normalised enrichment score”: 0.0884.
`P1A`: “normalised enrichment score” -0.0376.
For `L2A`, “normalised enrichment score” read 0.22.
For `K8A`, “normalised enrichment score” read 0.303.
`K13A`: “normalised enrichment score” -0.0119.

Further values, each from its own experiment
`PhoQ, residues 284 288 289 292 302 303 AEGLLW` gave a fold induction of 1.01 (PhoP, residues 12 14 15 18 19 AQCLL (Escherichia coli, UniProt P23836); Sort-seq, item: YFP reporter; E. coli; PhoQ-PhoP variant library, together with: 10 µM Mg2+; reference: high Mg2+ state, higher = stronger signaling).

Some of these lines once more (study 1):
With `AUAGCCCACUUUAAGCAGUAUGUUCCUAUCAUUGAAAAAGAAGCAAAGGAAUACUUUCAAAGUUGGGGAGAAAGCGGAGAAAGAAAUGUGUUUGAAGCACUGUCUGAGCUCAUAAUUUUG` the bound/input enrichment was 0.21 ratio.
`UGCUUCUUUUUUUAUCCAUGUAAUGUGUUGCCUUUAAAAACAAAAAUGAUGACUAAAAUAAUGUGUGAGGUGGUUCAUCCCUAAGAAGUCAACGGAAGGUCACUUCAAUCGUACCCUUCU` has a bound/input enrichment of 0.26 ratio.
`CUACAGGAGGAACUGGACUGCCAAGGAGAUGAGGAGGAAGAGGAGGAGGACGGAAGCAGUUUCUGCAGUGGAGCCACUGAUUCUAGCACCCAAAGCCUGGCUCCCAGUGAAUCGGAUGAG` gave a bound/input enrichment of 0.0636 ratio.
